{"data": "Earlier results as cited in several papers", "note": "Protocols differ between the studies behind these lines.", "sequence of UniProt Q86YV6 (whole entry, looked up)": "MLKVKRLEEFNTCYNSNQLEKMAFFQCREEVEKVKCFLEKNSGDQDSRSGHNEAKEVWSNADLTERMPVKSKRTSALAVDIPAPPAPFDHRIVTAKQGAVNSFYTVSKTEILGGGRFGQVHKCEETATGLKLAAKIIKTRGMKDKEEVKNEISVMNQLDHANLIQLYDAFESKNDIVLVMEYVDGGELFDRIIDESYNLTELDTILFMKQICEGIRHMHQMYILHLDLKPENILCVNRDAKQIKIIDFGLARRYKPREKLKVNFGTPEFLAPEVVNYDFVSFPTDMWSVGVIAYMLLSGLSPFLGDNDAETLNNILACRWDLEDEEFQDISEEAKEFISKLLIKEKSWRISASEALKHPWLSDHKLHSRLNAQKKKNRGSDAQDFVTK"}
{"SMILES": "Cc1cn([C@H]2C=C[C@@H](CO)O2)c(=O)[nH]c1=O", "system": "human", "conditions": "4 mg/kg", "measurement": "oral bioavailability", "result": "> 80%"}
{"SMILES": "O=C(O)[C@H]1/C(=C/CO)O[C@@H]2CC(=O)N21", "system": "human adults", "conditions": "oral", "measurement": "oral bioavailability range", "result": "31.4 to 98.8%"}
{"SMILES": "CC(C)(C)c1cc(C(C)(C)C)c(NC(=O)c2c[nH]c3ccccc3c2=O)cc1O", "system": "human", "measurement": "oral clearance", "result": "19 L/h"}
{"SMILES": "Nc1nc(=O)n([C@@H]2C=C[C@H](CO)O2)cc1F", "system": "human", "measurement": "oral bioavailability", "result": "32%"}
{"SMILES": "C=CC(=O)N1C[C@H](Nc2ncnc3[nH]ccc23)CC[C@@H]1C", "system": "human, plasma", "conditions": "200 mg", "measurement": "oral clearance", "result": "65 L/h"}
{"SMILES": "Nc1cc(C(F)(F)F)c(-c2nc(N3CCOCC3)nc(N3CCOCC3)n2)cn1", "target or system": "MYLK4 (Homo sapiens, UniProt Q86YV6)", "test": "enzyme activity", "conditions": "10 µM", "scale": "reference: untreated", "measurement": "remaining activity", "result": "77%"}
{"SMILES": "CNCc1cc(-c2ccccc2F)n(S(=O)(=O)c2cccnc2)c1", "system": "human", "conditions": "oral", "measurement": "oral clearance (CL/F)", "result": "115 L/h"}
{"SMILES": "Cn1c(=O)oc2ccc(-c3ccc(C[C@@H](C#N)NC(=O)[C@@H]4CNCCCO4)cc3)cc21", "system": "human", "conditions": "oral, dose not given, added: food", "measurement": "oral absorption", "result": "no effect"}
{"SMILES": "O=C1Nc2ccc(Cl)cc2[C@@](C#CC2CC2)(C(F)(F)F)O1", "system": "human", "conditions": "Simcyp input parameter", "measurement": "oral clearance (CLpo)", "result": "9.07 L/h"}
{"SMILES": "CCCN(CCC)S(=O)(=O)c1ccc(C(=O)O)cc1", "system": "human, plasma", "measurement": "oral clearance", "result": "1.03 L/h"}
{"SMILES": "Nc1ccn([C@H]2CO[C@@H](CO)S2)c(=O)n1", "system": "human", "conditions": "1600 mg", "measurement": "oral bioavailability", "result": "65 to 80%"}
{"SMILES": "N#Cc1ccc([C@H]2CCc3cncn32)c(F)c1", "system": "human", "conditions": "oral, 30 mg", "measurement": "oral clearance", "result": "~16.6 L/h"}
{"note": "A few entries again:"}
{"SMILES": "Nc1cc(C(F)(F)F)c(-c2nc(N3CCOCC3)nc(N3CCOCC3)n2)cn1", "target or system": "MYLK4 (Homo sapiens, UniProt Q86YV6)", "test": "enzyme activity", "conditions": "10 µM", "scale": "reference: untreated", "measurement": "remaining activity", "result": "77%"}
